Measured values pooled from the literature.
Lines come from different studies, so protocols differ.
PFF0160c E182D: Dihydroorotate dehydrogenase (quinone), mitochondrial (PFF0160c, Plasmodium falciparum, UniProt Q08210, E182D)
TMPRSS2: Transmembrane protease serine 2 (TMPRSS2, Homo sapiens, UniProt O15393)
Sequence of UniProt O15393 (whole entry, looked up): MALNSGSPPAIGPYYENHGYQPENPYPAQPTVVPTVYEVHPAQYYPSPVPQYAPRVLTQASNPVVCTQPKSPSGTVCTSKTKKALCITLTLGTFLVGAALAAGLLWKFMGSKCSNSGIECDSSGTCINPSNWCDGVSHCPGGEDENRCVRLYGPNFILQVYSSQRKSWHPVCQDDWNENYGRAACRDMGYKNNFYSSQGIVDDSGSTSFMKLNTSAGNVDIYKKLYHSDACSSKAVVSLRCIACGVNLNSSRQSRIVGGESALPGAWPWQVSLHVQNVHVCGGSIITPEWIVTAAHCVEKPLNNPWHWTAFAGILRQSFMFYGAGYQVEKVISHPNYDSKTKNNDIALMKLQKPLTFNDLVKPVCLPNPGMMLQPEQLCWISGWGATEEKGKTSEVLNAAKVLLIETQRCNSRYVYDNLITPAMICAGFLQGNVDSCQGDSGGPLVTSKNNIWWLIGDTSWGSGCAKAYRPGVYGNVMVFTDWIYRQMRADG
Sequence of UniProt P41144 (whole entry, looked up): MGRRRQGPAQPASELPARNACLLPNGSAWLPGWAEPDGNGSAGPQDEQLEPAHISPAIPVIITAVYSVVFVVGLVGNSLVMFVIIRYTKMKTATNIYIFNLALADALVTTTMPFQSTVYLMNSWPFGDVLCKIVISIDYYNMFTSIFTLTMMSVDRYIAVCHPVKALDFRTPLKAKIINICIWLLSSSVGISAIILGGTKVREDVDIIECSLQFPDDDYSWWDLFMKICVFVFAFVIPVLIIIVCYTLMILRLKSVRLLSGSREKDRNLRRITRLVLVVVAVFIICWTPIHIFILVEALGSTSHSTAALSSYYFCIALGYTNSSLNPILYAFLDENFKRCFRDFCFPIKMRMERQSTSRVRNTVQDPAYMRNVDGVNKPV
Sequence of UniProt Q00537 (whole entry, looked up): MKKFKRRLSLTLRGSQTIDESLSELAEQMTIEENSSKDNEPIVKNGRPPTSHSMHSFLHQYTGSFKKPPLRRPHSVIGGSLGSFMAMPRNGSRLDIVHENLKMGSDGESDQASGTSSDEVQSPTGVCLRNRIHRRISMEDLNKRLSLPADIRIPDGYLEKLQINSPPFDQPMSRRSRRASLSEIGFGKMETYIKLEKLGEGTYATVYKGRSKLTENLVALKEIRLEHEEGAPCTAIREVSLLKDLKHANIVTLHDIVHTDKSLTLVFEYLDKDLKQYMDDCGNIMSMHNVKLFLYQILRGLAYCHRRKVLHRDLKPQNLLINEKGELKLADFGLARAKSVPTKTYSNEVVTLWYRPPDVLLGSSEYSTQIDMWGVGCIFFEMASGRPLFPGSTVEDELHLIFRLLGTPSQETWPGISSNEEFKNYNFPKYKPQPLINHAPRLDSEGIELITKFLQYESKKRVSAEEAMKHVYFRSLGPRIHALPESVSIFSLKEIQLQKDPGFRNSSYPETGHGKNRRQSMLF
Sequence of UniProt P22303 (whole entry, looked up): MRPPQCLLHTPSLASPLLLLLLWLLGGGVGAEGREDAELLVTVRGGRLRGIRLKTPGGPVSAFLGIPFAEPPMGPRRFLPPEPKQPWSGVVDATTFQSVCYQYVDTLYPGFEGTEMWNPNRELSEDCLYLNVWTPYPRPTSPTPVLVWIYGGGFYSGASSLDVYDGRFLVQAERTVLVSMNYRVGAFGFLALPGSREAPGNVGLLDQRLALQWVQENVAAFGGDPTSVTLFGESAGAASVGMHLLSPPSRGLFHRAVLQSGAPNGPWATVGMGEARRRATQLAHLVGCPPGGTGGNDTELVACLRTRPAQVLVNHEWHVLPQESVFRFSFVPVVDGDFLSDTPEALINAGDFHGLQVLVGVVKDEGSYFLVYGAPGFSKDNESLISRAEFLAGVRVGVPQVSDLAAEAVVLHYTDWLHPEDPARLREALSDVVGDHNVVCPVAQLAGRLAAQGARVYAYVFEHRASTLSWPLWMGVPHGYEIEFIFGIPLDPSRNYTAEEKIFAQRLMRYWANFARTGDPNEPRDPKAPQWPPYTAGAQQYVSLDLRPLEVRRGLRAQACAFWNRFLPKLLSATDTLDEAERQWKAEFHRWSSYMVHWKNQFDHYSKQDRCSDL
Sequence of UniProt Q9Y4K4 (whole entry, looked up): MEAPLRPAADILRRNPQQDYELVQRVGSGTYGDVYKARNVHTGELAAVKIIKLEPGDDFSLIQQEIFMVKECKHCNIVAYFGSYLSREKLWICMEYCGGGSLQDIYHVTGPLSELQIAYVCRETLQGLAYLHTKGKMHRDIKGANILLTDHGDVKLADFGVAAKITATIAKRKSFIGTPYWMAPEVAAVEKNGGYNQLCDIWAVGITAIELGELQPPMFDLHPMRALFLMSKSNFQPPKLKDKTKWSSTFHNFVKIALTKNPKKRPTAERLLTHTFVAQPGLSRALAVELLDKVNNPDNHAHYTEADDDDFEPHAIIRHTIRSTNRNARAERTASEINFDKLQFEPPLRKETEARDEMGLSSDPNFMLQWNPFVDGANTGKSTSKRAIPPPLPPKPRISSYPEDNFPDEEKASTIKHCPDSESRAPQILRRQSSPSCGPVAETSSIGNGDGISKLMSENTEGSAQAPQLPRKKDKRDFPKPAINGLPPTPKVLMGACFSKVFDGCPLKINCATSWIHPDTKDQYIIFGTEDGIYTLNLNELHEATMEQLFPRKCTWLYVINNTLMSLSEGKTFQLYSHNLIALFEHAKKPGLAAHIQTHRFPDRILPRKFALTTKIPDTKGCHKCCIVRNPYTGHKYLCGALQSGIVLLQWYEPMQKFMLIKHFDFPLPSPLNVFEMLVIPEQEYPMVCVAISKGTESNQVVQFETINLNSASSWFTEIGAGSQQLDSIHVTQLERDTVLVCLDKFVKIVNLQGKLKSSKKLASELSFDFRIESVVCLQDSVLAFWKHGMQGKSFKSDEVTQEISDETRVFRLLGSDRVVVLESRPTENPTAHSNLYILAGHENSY
Sequence of UniProt P10721 (whole entry, unmodified, looked up): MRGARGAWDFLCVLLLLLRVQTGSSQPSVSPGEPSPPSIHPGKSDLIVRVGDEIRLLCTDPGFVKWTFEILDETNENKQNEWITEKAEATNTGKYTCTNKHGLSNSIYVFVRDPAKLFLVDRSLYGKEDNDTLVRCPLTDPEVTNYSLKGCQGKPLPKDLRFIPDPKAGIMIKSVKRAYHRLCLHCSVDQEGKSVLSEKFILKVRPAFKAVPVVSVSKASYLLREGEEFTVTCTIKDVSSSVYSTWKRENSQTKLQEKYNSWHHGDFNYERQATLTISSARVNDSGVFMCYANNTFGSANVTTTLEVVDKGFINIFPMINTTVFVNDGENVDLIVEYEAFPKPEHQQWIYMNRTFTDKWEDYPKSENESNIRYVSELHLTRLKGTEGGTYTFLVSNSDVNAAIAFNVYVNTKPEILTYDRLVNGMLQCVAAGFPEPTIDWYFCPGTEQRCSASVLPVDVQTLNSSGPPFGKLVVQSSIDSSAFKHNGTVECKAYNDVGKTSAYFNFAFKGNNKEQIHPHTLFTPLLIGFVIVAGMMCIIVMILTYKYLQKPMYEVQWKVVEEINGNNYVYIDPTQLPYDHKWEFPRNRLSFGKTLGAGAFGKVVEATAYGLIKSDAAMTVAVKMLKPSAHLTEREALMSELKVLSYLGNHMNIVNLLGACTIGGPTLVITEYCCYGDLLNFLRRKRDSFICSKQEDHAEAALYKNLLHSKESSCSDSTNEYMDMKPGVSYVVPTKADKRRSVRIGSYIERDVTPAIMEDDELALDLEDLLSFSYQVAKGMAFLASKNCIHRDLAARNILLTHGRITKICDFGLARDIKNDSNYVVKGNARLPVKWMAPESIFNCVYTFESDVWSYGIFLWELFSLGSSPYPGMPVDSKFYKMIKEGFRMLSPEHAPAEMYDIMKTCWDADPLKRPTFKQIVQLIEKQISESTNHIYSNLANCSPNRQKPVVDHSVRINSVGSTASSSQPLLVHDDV
Sequence of UniProt Q9UEE5 (whole entry, looked up): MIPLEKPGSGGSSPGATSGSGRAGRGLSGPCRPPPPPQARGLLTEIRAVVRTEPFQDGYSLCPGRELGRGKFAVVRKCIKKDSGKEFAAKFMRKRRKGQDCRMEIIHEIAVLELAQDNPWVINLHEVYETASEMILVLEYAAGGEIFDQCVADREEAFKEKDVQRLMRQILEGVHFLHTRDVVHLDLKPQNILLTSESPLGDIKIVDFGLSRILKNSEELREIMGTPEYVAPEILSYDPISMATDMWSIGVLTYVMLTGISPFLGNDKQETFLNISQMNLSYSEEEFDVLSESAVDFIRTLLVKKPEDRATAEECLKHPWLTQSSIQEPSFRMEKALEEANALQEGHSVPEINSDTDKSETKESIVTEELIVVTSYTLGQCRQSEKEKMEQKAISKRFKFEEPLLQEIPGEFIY
Sequence of UniProt O14730 (whole entry, looked up): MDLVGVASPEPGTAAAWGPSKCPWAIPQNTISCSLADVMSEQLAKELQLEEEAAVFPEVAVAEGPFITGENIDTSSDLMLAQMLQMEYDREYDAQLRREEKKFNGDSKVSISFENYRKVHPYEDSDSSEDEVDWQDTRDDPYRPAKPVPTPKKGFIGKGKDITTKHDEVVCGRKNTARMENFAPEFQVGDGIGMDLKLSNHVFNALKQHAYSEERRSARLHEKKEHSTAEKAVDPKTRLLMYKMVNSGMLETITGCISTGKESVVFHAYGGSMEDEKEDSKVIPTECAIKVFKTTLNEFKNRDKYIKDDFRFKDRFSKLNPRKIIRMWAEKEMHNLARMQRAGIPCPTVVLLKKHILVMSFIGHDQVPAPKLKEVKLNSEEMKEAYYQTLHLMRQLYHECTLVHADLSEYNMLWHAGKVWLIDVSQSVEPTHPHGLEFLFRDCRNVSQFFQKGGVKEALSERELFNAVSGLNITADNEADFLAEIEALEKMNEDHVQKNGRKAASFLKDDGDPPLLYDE

| SMILES | target or system | assay | conditions | measurement | result |
| --- | --- | --- | --- | --- | --- |
| CC(Oc1cccc(Cl)c1)C(=O)N1CCc2ccccc21 (stereo not drawn) | PFF0160c E182D | enzyme activity, inhibitor, absorbance | – | IC50 | 111 nM |
| N=C(N)NCCC[C@H](NC(=O)[C@H](Cc1ccsc1)NC(=O)[C@H](Cc1ccc(O)cc1)NC(=O)[C@@H](N)Cc1ccc(O)cc1)C(=O)c1nc2ccccc2s1 | TMPRSS2 | enzyme activity, inhibitor | 1 nM | activity vs control | 97% |
| Cc1nn(C)cc1-c1nc2c(N3CCN(Cc4ccc(Cl)cc4)CC3)c(Cl)cnc2[nH]1 | Mast/stem cell growth factor receptor Kit (KIT, Homo sapiens, UniProt P10721, L576P) | binding, competition with immobilised ligand | 1 µM | remaining binding | 19% |
| CN1C(=S)N(c2ccccc2)C(=O)/C1=C1/C(=O)N(C)c2ccc(Cl)cc21 | Acetylcholinesterase (ACHE, Homo sapiens, UniProt P22303) | enzyme activity, inhibitor, Ellman | 10 µM | inhibition | 73% |
| C#Cc1n[nH]c2c(-c3cn(C(C)c4ccccn4)c(=O)[nH]c3=O)cc(F)cc12 (stereo not drawn) | Serine/threonine-protein kinase 17A (STK17A, Homo sapiens, UniProt Q9UEE5) | enzyme activity, inhibitor | 1 µM | inhibition | 9.1% |
| C[C@H](NC(=O)[C@H](CCC(N)=O)NC(=O)[C@H](CCCNC(=N)N)NC(=O)c1ccccc1)C(=O)NC(CCCNC(=N)N)C(=O)c1nc2ccccc2s1 (stereo partly drawn) | TMPRSS2 | enzyme activity, inhibitor | 1 nM | activity vs control | 23% |
| COc1ccccc1N1CCN(Cc2c(NC(C)=O)sc(C)c2C)CC1 | PFF0160c E182D | enzyme activity, inhibitor, absorbance | – | IC50 | 568 nM |
| Cn1ccnc1C(=O)N[C@@H](CCC(N)=O)C(=O)N[C@@H](Cc1ccccc1)C(=O)N[C@@H](CCCNC(=N)N)C(=O)c1nc2ccccc2s1 | TMPRSS2 | enzyme activity, inhibitor | 1 nM | activity vs control | 88% |
| Nc1ccncc1 | Sodium channel protein type 1 subunit alpha (SCN1A, Homo sapiens, UniProt P35498) | ion current, inhibitor, patch clamp | 3 µM | inhibition | -18.3% |
| [2H]c1c([2H])c([C@]2([2H])CCCN2C(=O)C(C)(C)Oc2ccc3cn[nH]c3c2)c([2H])c([2H])c1C([2H])([2H])[2H] | Cyclin-dependent kinase 17 (CDK17, Homo sapiens, UniProt Q00537) | binding, competition with immobilised ligand | 1 µM | remaining binding | 81% |
| C[C@@H](O)[C@@H]1CN([C@H](Cc2ccc3ccccc3c2)CN2CCC[C@H]2CN2CCNC[C@@H]2Cc2ccc3ccccc3c2)CCN1CCC12CC3CC(CC(C3)C1)C2 | Kappa-type opioid receptor (OPRK1, Cavia porcellus, UniProt P41144) | ligand displacement, radioligand | 0.5 µM, pH 7.5 | remaining binding | 109% |
| Nc1ncc(-c2nc(N3CCOCC3)nc(N3CCOCC3)n2)c(C(F)F)n1 | Serine/threonine-protein kinase RIO3 (RIOK3, Homo sapiens, UniProt O14730) | binding, competition with immobilised ligand | 10 µM | remaining binding | 98% |
| COc1ncccc1-c1cnn2ccc(N3CCN(C(=O)OC(C)C)CC3)nc12 | Mitogen-activated protein kinase kinase kinase kinase 5 (MAP4K5, Homo sapiens, UniProt Q9Y4K4) | binding, competition with immobilised ligand | 1 µM | remaining binding | 76% |
| N.N.[Cl][Pt][Cl] | P3HR-1 | cell growth or viability, ATP luminescence | 72 h | IC50 | 5600 nM |
| C[C@H](NC(=O)[C@H](CCC(N)=O)NC(=O)[C@H](CCCNC(=N)N)NS(=O)(=O)c1ccccc1)C(=O)N[C@H](CCCNC(=N)N)C(=O)c1nc2ccccc2s1 | TMPRSS2 | enzyme activity, inhibitor | 1 nM | activity vs control | 12% |

Repeated from above:
| SMILES | target or system | assay | conditions | measurement | result |
| --- | --- | --- | --- | --- | --- |
| C[C@H](NC(=O)[C@H](CCC(N)=O)NC(=O)[C@H](CCCNC(=N)N)NC(=O)c1ccccc1)C(=O)NC(CCCNC(=N)N)C(=O)c1nc2ccccc2s1 (stereo partly drawn) | TMPRSS2 | enzyme activity, inhibitor | 1 nM | activity vs control | 23% |
